Assay results gathered from unrelated publications.
Every numbered part comes from another study and shows a few of its results, in no order.

Study 1
Target: RNA binding protein fox-1 homolog 2, RRM domain, GST-SBP tag (RBFOX2, Homo sapiens, UniProt O43251-10, residues 100-194)
Method: RNA Bind-n-Seq
Form: RNA
Matrix: in vitro
Concentration: 365 nM
Notes: natural RNA segment, single round, ends assumed
Baseline: no-protein control
Reading: higher = stronger binding
Constant ends, left off below: GGGAGUUCUACAGUCCGACGAUC … UGGAAUUCUCGGGUGCCAA
Residues (chain): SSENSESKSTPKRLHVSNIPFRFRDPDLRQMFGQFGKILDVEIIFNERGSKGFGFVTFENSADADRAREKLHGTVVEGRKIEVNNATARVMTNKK
Strand	RBNS enrichment (R)
UUUUGGUAACUAAUGUUUUAUGGCACUUAAGAAUAAUUAGCAGCGUUAAAUUUUGUUUGUAUUAAGCACUUUUAAUUUUAUCCUUCCUAAAAAUAGUUUAUUGUAUCUGA	12.5
GCAGGUGAGGGGGUCUGCGGUGGCUCCUGUCUUCCCUGCAGCAGGGAAGGAGGGCCGUGUGGUGCUUUGCUAGAUAGGACGGUUUUUGCAAAGCACCUGGAGAUGUUUGC	2.07
UUCAGAAAAUUGCUUUUGCCUUUUUCAUGAAUGUUAAGCAGCAGCAUUGUGAGAUCGAUCUGUCCUGGCAGUUAACACAAUGUGCAACAGUGUGUUAGCAUGGAACAGAA	0.332
GGUGCAGGCCACCAACAGCAGCGUCUACCAGGUUUUGUGCCUUAACAGUCUCAAGGGCUGAAGCCCAUUCAUUUUAUAAGCUGUCACCAUGGGCUGCUGCUUCCUCUUGC	0.247
CAGGGUAUGCUUUCUAGAAAAUAUGCUGUUCUGUCCCAGAAUGACUGUGCAUAGGGUAUCCGUUUCAGAGCCUGGUGUUGUGCUAUUUAGAUGUUUGUCUUGCACAACAU	0.503
GAUGCUCCUUCCCUGAAUAUGCAGUAGAGCUGUGCCACAUGCCCUUUGAAGAUCUUCAUGGCUGCUGUGAGACCCUGCUUUGGCAGCACCGAGUCACCUGGUGAGCCUCA	0.585
AGAAAUCCUUUUUCUUAGGAGUAAAAGCUGGUAAAAGGGGUGACUUCCUGGUUCUGAUCAAAACCAGACCAAACCCUCAUUUCAGCAAAGCCUUGCAAGACACUCCCUUG	0.987

Study 2
Target: Interferon regulatory factor 5, full length, phosphomimetic (IRF5, Homo sapiens, UniProt Q13568-2, residues 1-514, K96S/S451D/S453D/S456D/S462D)
Method: protein-binding microarray
Form: double-stranded DNA, one strand shown
Matrix: in vitro
Concentration: 250 nM
Notes: 60-bp whole probe
Together with: salmon DNA 0.4 mg/ml
Baseline: random background probes
Reading: higher = stronger binding
Constant ends, left off below: GCCTAGCAC … GTCTTGATTCGCTTGACGCTGCTG
Strand	log fluorescence
GACGGTTACGACTTTCGGGACGTGCTA	4.85 z-score
TTAGATTTCGGGTATGGATTAGTGCTA	5.48 z-score
GACGGACTGCTTTTCCGGACGTGCTAG	-0.375 z-score
CAAAGAAAAAGAAAAAAAAAGGTGCTA	0.901 z-score
TTAGGTATCGGTTTGGGTTAGTGCTAG	7.68 z-score

Study 3
Target: PABPC1L2, full length, GST fusion (mouse, UniProt A0ABA7IW68)
Method: RNAcompete
Form: RNA
Matrix: in vitro
Concentration: 20 nM
Notes: 7-mer, probes averaged, single round
Baseline: mean of 7-mers
Reading: higher = stronger binding
Target sequence (chain): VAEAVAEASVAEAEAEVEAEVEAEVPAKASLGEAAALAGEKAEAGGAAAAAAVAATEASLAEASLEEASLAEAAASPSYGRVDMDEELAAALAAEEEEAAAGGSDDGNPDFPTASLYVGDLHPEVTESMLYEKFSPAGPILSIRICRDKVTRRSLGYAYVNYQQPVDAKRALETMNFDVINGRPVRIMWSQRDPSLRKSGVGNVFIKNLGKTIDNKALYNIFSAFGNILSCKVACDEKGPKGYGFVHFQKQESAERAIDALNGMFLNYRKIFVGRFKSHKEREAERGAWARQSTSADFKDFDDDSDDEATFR
Strand	7-mer Z-score
AACGGAC	0.273
UCAGCGU	-0.307
ACGUCUC	-0.284
CCCGCCC	-0.57
GAAUAAG	-0.0699

Other studies, line by line
Substance	target	test	system	setting	scale	endpoint	value
PhoQ, residues 284 288 289 292 302 303 GLASVI	PhoP, residues 12 14 15 18 19 IFFTR (Escherichia coli, UniProt P23836)	Sort-seq, item: YFP reporter	E. coli	PhoQ-PhoP variant library, together with: 10 µM Mg2+	baseline: high Mg2+ state, higher = stronger signaling	fold induction	6.74

A few entries again (study 3):
Strand	7-mer Z-score
AACGGAC	0.273
ACGUCUC	-0.284
